Experimental data collected from several papers.
Parts stem from different laboratories: compare values within a part only. Substitutions count along the parent as printed.

Sample 1 — method: DHFR PCA, dose-response; medium: yeast; setting: Hill fit, mean, not affinity; together with: (+)-ABA, dose series; reading: lower = more sensitive
Target: ABI1, truncated, D143A, DHFR fusion (Arabidopsis thaliana, UniProt P49597)
Parent: PYL1, truncated, DHFR fusion (Arabidopsis thaliana, UniProt Q8VZS8); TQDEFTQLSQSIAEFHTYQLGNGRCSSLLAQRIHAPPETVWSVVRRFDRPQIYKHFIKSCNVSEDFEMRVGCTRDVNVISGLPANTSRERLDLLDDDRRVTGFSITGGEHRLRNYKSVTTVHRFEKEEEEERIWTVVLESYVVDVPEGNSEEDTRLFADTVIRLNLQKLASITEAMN
Substitution	ABA EC50 [µM]
E64K	3.92
D144K	42.2
E151C	1.94
L156W	4.61
A175T	1.86
L20W	4.46
P83E	67.4
D92C	49.2
C72K	23.4
A13E	3.2
R49E	3.28
E125G	2.38
V70Q	10.4
Q51D	14.4
C25Q	113
S171N	2.47
N22Q	2.84

Sample 2 — method: protein binding microarray; molecule type: double-stranded DNA, one strand shown; medium: in vitro; concentration: not given; relative to: not given; reading: higher = stronger binding
Target: Histone acetyltransferase KAT6A, winged helix 1, GST fusion (KAT6A, Homo sapiens, UniProt Q92794, residues 1-85)
Setting: 8-mer, flanks averaged, mean of 2 arrays, mostly near background
Construct (chain): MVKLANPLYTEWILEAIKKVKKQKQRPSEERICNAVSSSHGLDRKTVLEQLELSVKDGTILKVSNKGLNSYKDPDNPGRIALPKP
Oligonucleotide	E-score
TACGTGAA	-0.00845
AATCGAAG	-0.159
CCGATGGA	0.0878
GCTGAGAA	-0.259
CAAGACCC	-0.168
AAACTGTC	-0.122
AACAAATA	-0.159
ATGCGTAA	0.309
AAGGCGAG	0.0232
ATTAGTTG	-0.116
ACCTGATG	-0.0495
CACGAAGA	-0.105
ACGGAGCC	0.23
CCTATTTA	-0.0146
CCGACAGG	0.0677
ACCGTGGA	0.247
CCCATCCC	-0.0127
CCCACCAG	-0.206
GGATGCGA	0.142
GGACATAA	-0.0174
GCAATTCA	0.033
CTGTTGTC	-0.0833
CTCTGGGA	-0.107
CGCATTCA	0.102
CCTCAGTA	-0.0832

Sample 3 — target: CCNE1, cyclin fold, Cln2 fusion (human); method: yeast growth competition, sequencing; medium: yeast; setting: strong parent motif; relative to: not given; reading: higher = stronger binding
Parent: CDKN1A docking peptide (human); SKACRRLFGPVDS
Substitution	normalised enrichment score
F8T	-0.381
C4T	1.92
R5N	0.119
R5A L7A	0.0899
A3K	0.672
A3D	0.102
C4A	2.4
R5V	0.387
D12S	4.12
R6H	1.57
G9T	5.63
L7C	0.0542
F8P	-0.0248
R5K F8L	0.0289
V11K	4.66
P10C	4.65
K2C	4.06
L7G	0.114
A3N	0.188
D12N	4.98
R5K	2.33
P10S	5.81
D12H	4.28
P10L	3.38
L7E	-0.264

Sample 4 — target: CEBPA, bZIP domain (human); method: DHFR protein complementation; medium: yeast; relative to: wild-type JUN-FOS pair; reading: higher = stronger binding
Setting: single substitutions, most at no-binding floor
Parent: JUN, bZIP domain (human); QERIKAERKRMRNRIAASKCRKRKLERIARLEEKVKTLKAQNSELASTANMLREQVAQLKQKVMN; partner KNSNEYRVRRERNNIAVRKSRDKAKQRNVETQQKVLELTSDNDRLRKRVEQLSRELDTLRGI
Substitution	binding fitness
K34G	-1.46 natural log
A46H	-1.49 natural log
T48H	-1.42 natural log
E44S	-1.47 natural log
V35H	-1.48 natural log
I28F	-1.44 natural log
R30Q	-1.28 natural log
E54C	-1.55 natural log
L45M	-1.38 natural log
E54K	-1.61 natural log
I28A	-1.42 natural log
A40V	-1.53 natural log
M51Q	-1.52 natural log
L45F	-1.44 natural log
E32I	-1.54 natural log
T48K	-1.42 natural log
I28H	-1.34 natural log
A49K	-1.4 natural log
E33F	-1.61 natural log
L52E	-1.51 natural log
V56L	-1.41 natural log
Q55E	-1.47 natural log
I28V	-1.45 natural log
K36C	-1.26 natural log
L38P	-1.52 natural log

For quick reference, copied from above (sample 2):
Oligonucleotide	E-score
ACCTGATG	-0.0495
CACGAAGA	-0.105
ACGGAGCC	0.23
CCTATTTA	-0.0146
CCGACAGG	0.0677
ACCGTGGA	0.247
CCCATCCC	-0.0127
CCCACCAG	-0.206
GGATGCGA	0.142
GGACATAA	-0.0174
GCAATTCA	0.033
